Measured values collected from several papers.
Every numbered part comes from another study and shows a few of its results, in no order. Positions count from the first letter of the parent shown.

Study 1
Target: Ras GTPase-activating protein-binding protein 1, full length (G3BP1, Homo sapiens, UniProt Q13283)
UniProt Q13283, sequence (whole entry, looked up): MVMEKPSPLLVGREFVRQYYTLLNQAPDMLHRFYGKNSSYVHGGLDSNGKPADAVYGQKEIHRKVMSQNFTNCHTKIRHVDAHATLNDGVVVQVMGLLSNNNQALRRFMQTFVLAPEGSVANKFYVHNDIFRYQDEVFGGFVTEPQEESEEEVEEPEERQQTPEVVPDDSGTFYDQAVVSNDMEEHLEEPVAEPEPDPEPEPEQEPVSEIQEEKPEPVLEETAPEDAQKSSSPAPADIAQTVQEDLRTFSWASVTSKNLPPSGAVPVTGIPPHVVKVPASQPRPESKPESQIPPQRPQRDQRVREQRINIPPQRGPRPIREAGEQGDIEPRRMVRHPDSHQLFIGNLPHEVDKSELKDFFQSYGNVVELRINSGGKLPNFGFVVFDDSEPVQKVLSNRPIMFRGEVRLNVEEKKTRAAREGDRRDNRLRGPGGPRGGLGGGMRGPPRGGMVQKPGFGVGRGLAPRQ
Method: RNA Bind-n-Seq
Molecule type: RNA
Matrix: in vitro
Concentration: 200 nM
Setting: whole 134-nt RNA, ends assumed
Added: 150 mM LiCl
Reference: input library
Reading: higher = stronger binding
Each molecule: 7-deaza-guanosine replaces G
For `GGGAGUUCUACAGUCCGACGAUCUCCUGUGCUACACAUCGUAUGUACCGAAUCGGAAAAAAAGGGAAAAAAAGGAAAAAAAGGAAAGUAUUAUGUUACGCCGUUCGGAUCUGCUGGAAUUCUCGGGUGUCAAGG`, the log2 enrichment was -0.4.
`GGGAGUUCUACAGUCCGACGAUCACCAUGCAGGUGGGCAUCUUUGGGAAGUGGGGCAAGGGGGGGAUAGGGAAGGGGGUAACACUUUGGGAACAGGUGGUCCCAGGUCGUUUCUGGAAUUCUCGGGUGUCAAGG` has a log2 enrichment of 0.291.
With `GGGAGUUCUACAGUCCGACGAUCACCAUGCAGGUGUGCAUCUUUGGGAAGUGGGGCAAGGGGGGGAUAGGGAGGGGGGUAACACUUUGGGAACAGGUGGUCCCAGGUCGUUUCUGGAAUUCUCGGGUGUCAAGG` the log2 enrichment was 0.426.
`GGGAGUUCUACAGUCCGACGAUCUCUAUGUAGCAUCCAGGUACUACUUCCUUUGGAAUGUCAGUAUUUAAUCUGAGCAAUGCGAUUGUGGGCAGUGGAAUCCUUGGGCUUUCUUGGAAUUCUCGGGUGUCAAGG` has a log2 enrichment of -1.83.
The log2 enrichment of `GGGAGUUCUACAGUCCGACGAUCGAUGAGACAGAUGCUUCAUCAGCAGUGAAAGUGAAAAGAGCAGUCCAGAAAACAUCCGAUUUAAUAGUGUUGGGUCUCCCAUGGAAAACAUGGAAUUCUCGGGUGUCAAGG` is reported as -1.25.
With `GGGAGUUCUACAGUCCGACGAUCCACAGACAACACGCACCCACACAGACACAGAGGGAAGGGGUUGGGAUGGAAACAGGGUGCACAGCAGGGCGGGGUAGGACCCCAGCCCCUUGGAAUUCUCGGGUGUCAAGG` the log2 enrichment was 0.48.
With `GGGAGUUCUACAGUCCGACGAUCCUGUGCUACACAUCGUAUGUACCGAAUCGGGGUUUUUUGGGGUUUUUUGGGGUUUUUUGGGGAAAGUAUUAUGUUACGCCGUUCGGAUCUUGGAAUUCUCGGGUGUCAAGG` the log2 enrichment was 1.62.
With `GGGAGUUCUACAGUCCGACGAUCACCAGGCAGGUGGGCAUCUUUGGGAAGUGGGGCAAGGGGGGGAUAGGGAGGGGGGUAACACUUUGGGAACAGGUGGUCCCAGGUCGUUUCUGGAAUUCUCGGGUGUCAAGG` the log2 enrichment was 0.318.

Study 2
Target: Sal-like protein 4, full length isoform B (SALL4, Homo sapiens, UniProt Q9UJQ4-2, residues 1-616)
Method: universal PBM
Molecule type: double-stranded DNA, one strand shown
Matrix: in vitro
Concentration: not given
Setting: 8-mer, flanks averaged, mean of replicates
Reading: higher = stronger binding
With `AAGGATTG` the E-score was 0.0908.
`AAGGTTGA` gave an E-score of 0.179.
`CACAAATA` has an E-score of 0.318.
`AAGATTTC` gave an E-score of 0.0885.
For `GGTCACAA`, the E-score was -0.195.
The E-score of `CGCGAATC` is reported as -0.159.
With `GTCCCGAC` the E-score was -0.258.
With `CCAGAACA` the E-score was -0.0766.
`AGAAACAA` gave an E-score of 0.267.
The E-score of `ACTAGCTG` is reported as -0.0369.
The E-score of `AAAGCCAT` is reported as 0.135.
`ACATGTAA` has an E-score of 0.314.
The E-score of `ATGGCCAA` is reported as -0.00275.
For `ATACTCTG`, the E-score was 0.129.
`CGTGAAGA` has an E-score of -0.0287.
`AGGCCCGA` gave an E-score of -0.281.
`AGTGCGCC` gave an E-score of -0.273.
The E-score of `CTGGAAGA` is reported as -0.146.
For `GCGATATA`, the E-score was 0.171.
The E-score of `AACGGAGG` is reported as -0.11.
`ACACCGCA` gave an E-score of -0.143.
With `CATCGGGG` the E-score was -0.141.
`CTCGCTAC` has an E-score of -0.178.
The E-score of `TATGCGAA` is reported as 0.193.
For `GAAGAGGA`, the E-score was -0.152.

Study 3
Target: CCNE2, cyclin fold, Cln2 fusion (human)
Method: yeast growth competition, sequencing
Matrix: yeast
Setting: weak parent motif
Reference: not given
Reading: higher = stronger binding
Starting sequence: ASZ1 docking peptide (human); GFGFLLFICKLTF
Under “normalised enrichment score”, `G1A` is recorded as 0.906.
Under “normalised enrichment score”, `F2A` is recorded as 0.629.
For `I8A`, “normalised enrichment score” read 0.688.
`C9A` — result for “normalised enrichment score”: 0.986.
Under “normalised enrichment score”, `L11A` is recorded as 0.581.
Under “normalised enrichment score”, `F7A` is recorded as 0.442.
Under “normalised enrichment score”, `T12A` is recorded as 0.922.

Study 4
Target: RNA binding protein fox-1 homolog 2, RRM domain, GST-SBP tag (RBFOX2, Homo sapiens, UniProt O43251-10, residues 100-194)
Method: RNA Bind-n-Seq
Molecule type: RNA
Matrix: in vitro
Concentration: 365 nM
Setting: natural RNA segment, single round, ends assumed
Reference: no-protein control
Reading: higher = stronger binding
Construct (chain): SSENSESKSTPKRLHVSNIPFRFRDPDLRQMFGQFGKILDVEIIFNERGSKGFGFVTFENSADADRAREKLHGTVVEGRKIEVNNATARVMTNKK
Under “RBNS enrichment (R)”, `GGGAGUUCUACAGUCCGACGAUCUAUUAAGAUCAUUACUGCAUGUGCCCUAAAAACCCAAGUUUUCUAUUCCCUUAGGACAGAAAAUUGCAUGUGAGGUGGGAUAAUCGAGUUUCAGUGACCCACGUCAGUUAUGGAAUUCUCGGGUGCCAA` is recorded as 7.41.
For `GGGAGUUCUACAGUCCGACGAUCCUCAGCCAGCCCUCAGAGUGUCCGCUGUGCGCACGGGGGCGGGGCGGGGCGGGCAGCUCCUUGUCUCUCAGCUUUGACUGACUUGUCCGCAUUGGGGAUUUUUGUUCUCAUGGAAUUCUCGGGUGCCAA`, “RBNS enrichment (R)” read 0.314.
For `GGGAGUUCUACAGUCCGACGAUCAACAUUUUCUCCCUGGAUUUUUACCAGUCUCACAUGAUUCCAGCCAUCACCUUAGACCACCAAGCCUUGAUUGGUGUUGCCAGUUGUCCUCCUUCCGGGGAAGGAUUUUGUGGAAUUCUCGGGUGCCAA`, “RBNS enrichment (R)” read 0.457.
`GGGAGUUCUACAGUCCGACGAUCCCGUUUAACCUCCGAGAUGAGCUGCUCAGACUCUACAGCAUGACGACUACAAUUUCUUUUCAUAAAACUUCUUCUCUUCUUGGAAUUAUUAAUUCCUAUCUGCUUCCUAGUGGAAUUCUCGGGUGCCAA` — result for “RBNS enrichment (R)”: 3.22.
Under “RBNS enrichment (R)”, `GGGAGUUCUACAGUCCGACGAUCUGGGCAUAUCUUGUUGUUCAGUUUGGGUGUCUGCUAAAGAGGAAGUGCACUGGCCCUCUUUGAAAGGGCUUUACAGUGGGGGCACCAAGACCCCAAAGGGCCCAGGCCAGUGGAAUUCUCGGGUGCCAA` is recorded as 0.571.
`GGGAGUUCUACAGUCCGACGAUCUCUUUGGAUUAAAAGUCAUAAACUUAAAAAAAAAAAUCUCUUUAUUCAAAAAGAUAGUUAAAUCAUGCUACUGAGCCUAUGAUGUCGUUGAUGUUUGGUUCGGUAUUCUUUGGAAUUCUCGGGUGCCAA`: “RBNS enrichment (R)” 0.401.
`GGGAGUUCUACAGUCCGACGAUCUUGAUUCUCUAUCGUGAUGCGAAAUUGAUGCCUGCUGCUCUACAGAAAAUGCCAACUUGGUUUUUUAACUCCUCUCACCCUGUUAGCUCUGAUUAAAAACACUGCAACCCUGGAAUUCUCGGGUGCCAA`: “RBNS enrichment (R)” 0.844.
`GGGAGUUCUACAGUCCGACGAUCGGCUGAGCCUCAGGGCUAAUUGUACUGAGUAAGGACUGCAGCUCCCGGUGACCGCGAGGAGUCGGUGAGGUGGGACUGGUGACUCUCAGAAGCUCCUCGGUGCACUUUUGUGGAAUUCUCGGGUGCCAA` — result for “RBNS enrichment (R)”: 0.891.

Study 5
Target: Histone acetyltransferase KAT6A, winged helix 1, GST fusion (KAT6A, Homo sapiens, UniProt Q92794, residues 1-85)
Method: protein binding microarray
Molecule type: double-stranded DNA, one strand shown
Matrix: in vitro
Concentration: not given
Setting: 8-mer, flanks averaged, mean of 2 arrays, mostly near background
Reference: not given
Reading: higher = stronger binding
Target sequence (chain): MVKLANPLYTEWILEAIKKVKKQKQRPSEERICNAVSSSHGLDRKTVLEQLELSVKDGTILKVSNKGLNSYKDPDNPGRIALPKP
The E-score of `GGGGCTAA` is reported as -0.185.
With `GCTAATCC` the E-score was 0.0546.
With `AAATGGCT` the E-score was -0.134.
`ATGCGATA` gave an E-score of -0.00215.
`AAAGTATA` has an E-score of -0.134.
`GAATTGCC` has an E-score of 0.0603.
For `CTCAACAA`, the E-score was -0.196.
The E-score of `CGTGCCTC` is reported as 0.0801.
`TAAGTGGA` gave an E-score of -0.245.
With `AATCCGCT` the E-score was 0.111.
`CGTGCCGC` has an E-score of 0.403.
With `AAGTGGCT` the E-score was -0.0796.
`ATTGGCGA` gave an E-score of -0.123.
The E-score of `AAATCGCA` is reported as -0.0628.
For `CATTTCGC`, the E-score was 0.127.
With `GAGGGGAC` the E-score was -0.115.
The E-score of `GAGATAGA` is reported as -0.147.
With `TCTAAAGA` the E-score was -0.0854.
With `ATTCTCGA` the E-score was -0.116.

Repeated from above (study 1):
With `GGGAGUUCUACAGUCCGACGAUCACCAGGCAGGUGGGCAUCUUUGGGAAGUGGGGCAAGGGGGGGAUAGGGAGGGGGGUAACACUUUGGGAACAGGUGGUCCCAGGUCGUUUCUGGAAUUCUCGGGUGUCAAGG` the log2 enrichment was 0.318.
With `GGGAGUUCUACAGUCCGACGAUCACCAUGCAGGUGUGCAUCUUUGGGAAGUGGGGCAAGGGGGGGAUAGGGAGGGGGGUAACACUUUGGGAACAGGUGGUCCCAGGUCGUUUCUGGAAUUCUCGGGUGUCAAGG` the log2 enrichment was 0.426.
`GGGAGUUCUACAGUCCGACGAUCUCUAUGUAGCAUCCAGGUACUACUUCCUUUGGAAUGUCAGUAUUUAAUCUGAGCAAUGCGAUUGUGGGCAGUGGAAUCCUUGGGCUUUCUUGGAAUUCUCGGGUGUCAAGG` has a log2 enrichment of -1.83.
`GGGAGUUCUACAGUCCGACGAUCACCAUGCAGGUGGGCAUCUUUGGGAAGUGGGGCAAGGGGGGGAUAGGGAAGGGGGUAACACUUUGGGAACAGGUGGUCCCAGGUCGUUUCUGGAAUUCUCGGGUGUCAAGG` has a log2 enrichment of 0.291.
The log2 enrichment of `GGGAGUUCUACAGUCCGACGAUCGAUGAGACAGAUGCUUCAUCAGCAGUGAAAGUGAAAAGAGCAGUCCAGAAAACAUCCGAUUUAAUAGUGUUGGGUCUCCCAUGGAAAACAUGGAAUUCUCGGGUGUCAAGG` is reported as -1.25.
With `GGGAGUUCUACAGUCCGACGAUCCUGUGCUACACAUCGUAUGUACCGAAUCGGGGUUUUUUGGGGUUUUUUGGGGUUUUUUGGGGAAAGUAUUAUGUUACGCCGUUCGGAUCUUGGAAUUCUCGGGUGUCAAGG` the log2 enrichment was 1.62.
For `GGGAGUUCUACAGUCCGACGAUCUCCUGUGCUACACAUCGUAUGUACCGAAUCGGAAAAAAAGGGAAAAAAAGGAAAAAAAGGAAAGUAUUAUGUUACGCCGUUCGGAUCUGCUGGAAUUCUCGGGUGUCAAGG`, the log2 enrichment was -0.4.
With `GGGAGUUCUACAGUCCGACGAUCCACAGACAACACGCACCCACACAGACACAGAGGGAAGGGGUUGGGAUGGAAACAGGGUGCACAGCAGGGCGGGGUAGGACCCCAGCCCCUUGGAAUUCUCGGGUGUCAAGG` the log2 enrichment was 0.48.
